Published values collected from several papers.
A part holds a random share of what one study measured. Changes are numbered by the printed parent chain.

Study 1
Target: CCNB3, cyclin fold, Cln2 fusion (human)
Method: yeast growth competition, sequencing
Matrix: yeast
Notes: weak parent motif
Reference: not given
Direction: higher = stronger binding
Quantity: normalised enrichment score
Starting sequence: E2F8 docking peptide (human); FVPQRKLEVSTED; partner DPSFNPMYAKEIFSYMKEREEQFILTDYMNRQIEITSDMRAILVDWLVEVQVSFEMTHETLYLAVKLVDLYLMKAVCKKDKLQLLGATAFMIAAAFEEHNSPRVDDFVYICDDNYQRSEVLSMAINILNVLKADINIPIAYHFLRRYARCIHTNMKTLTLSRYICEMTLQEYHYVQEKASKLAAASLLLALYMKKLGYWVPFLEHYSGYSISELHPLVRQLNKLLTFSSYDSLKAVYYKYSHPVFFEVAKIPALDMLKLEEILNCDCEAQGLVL
F1A: 0.322
P3A: -0.208
D13A: 0.0712
R5K: -0.101
Q4A: -0.483
R5K V9F: 0.128
V9A: -0.142
S10A: 0.525

Study 2
Target: RNA binding protein fox-1 homolog 2, RRM domain, GST-SBP tag (RBFOX2, Homo sapiens, UniProt O43251-10, residues 100-194)
Method: RNA Bind-n-Seq
Molecule type: RNA
Matrix: in vitro
Tested at: 365 nM
Notes: natural RNA segment, single round, ends assumed
Reference: no-protein control
Direction: higher = stronger binding
Quantity: RBNS enrichment (R)
Construct (chain): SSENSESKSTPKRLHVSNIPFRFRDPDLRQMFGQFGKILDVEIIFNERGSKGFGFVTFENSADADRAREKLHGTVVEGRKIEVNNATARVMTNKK
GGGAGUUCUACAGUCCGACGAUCCAUCCCAGCCCCCCAAGUGACUGUCUGCCCCGUCCCCGCUCCGCCCGUGACUGGGCAUCCCUCACCAGCUACUUUGACAUGCACACUGCCUGACGCUUCUCCACCCAGUGUGGAAUUCUCGGGUGCCAA: 0.896
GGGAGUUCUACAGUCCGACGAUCGAGUCCCCCUCACCCUGGCCCUGUUCCACCAUGGUUAUCUGGGUAUUGGGGAAUGGAAACUUUGGGGGAGUGACUUUUUAAAGAGACACUUAUAAUUUCUACUACUGCACUGGAAUUCUCGGGUGCCAA: 0.303
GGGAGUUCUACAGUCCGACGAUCAGUGCUGUCAACUGGUCUCCCACUGUCACUCCCACUCAUUUCAUUUGGACACAGGAAAUGUUGAUAGAUAUUUCGUUAAAUUGGUGAGUUUGGUAAUAUGUUAGCUCUCAUGGAAUUCUCGGGUGCCAA: 0.849
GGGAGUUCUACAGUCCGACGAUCGACACAAAUAGGUUUUGGGGAUCUACCUAAGGGAUAGGUCUACUCCAAAAUUAUUAAAUUUAUAAUUGUGCAAUUCUGUAAUUUCCCAAGGCAUAAGUAAUAUGACCCUAUGGAAUUCUCGGGUGCCAA: 0.677
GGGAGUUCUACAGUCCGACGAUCUGAAGCCCUUGCUCCACUGCCACCAGCCCGCCUGCCCCAGUGCAGACUGGUCUUCAGGAGUCAGUAGACCACCGGACCAGGUGUCAGCAUCCACUCCAAGCCAUGCUAGGUGGAAUUCUCGGGUGCCAA: 0.346
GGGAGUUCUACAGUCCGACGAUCUUAGCAUAAACUAAUUCCUUUUGAGUUUGUAAAUCAUUUGUACCCAGAAUGUAUUAUAAUAUAUUGCUAUUAGGUUACUCUACUAACUGGAGCCAUGCCGACCUCUACAAUGGAAUUCUCGGGUGCCAA: 0.375
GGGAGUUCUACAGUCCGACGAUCAGAAUGUCCUUAUUCUUGUGGUUAAAAAACCUGCCUGAAUUAAAUUGGGCUUAAAUCAGUGUAACCUGAUUCAUCCUGGGAUGUAAACCAUUUGAAGUCAGCUAAUUUGAUGGAAUUCUCGGGUGCCAA: 0.525
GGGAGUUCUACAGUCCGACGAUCCCACGCUGGUCUUCUGAGAUUCCAAGUCCUUCCCCAGCUGACAUGCCCGUAGCCCCUUCCGACUCAGUGGGGCGAGCGCUCAACACGGAUCGCCCCCCCCUUCCCAGUUCUGGAAUUCUCGGGUGCCAA: 0.341
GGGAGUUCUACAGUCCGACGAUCCAGUGAGGCUGCAGUGGGUCAUUUGGUUCCACCUUCAUCUUUCAGAGCCAGCUGACCUCAGAUUGCCAAAAGUUUGAAGGCCAUGUGCAUGUUCUGUGUGACCCAAGCCUUGGAAUUCUCGGGUGCCAA: 6.94
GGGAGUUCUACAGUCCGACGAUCGGAAUUUGUUGUCUGCUUCUAAGCUAGAGUGGUUGUAAAGGUUCUGCUCUGCCAGUGUUCAGUAUCAGUGGCUGAAUUAUGGAUAAGAACUGUAGAGAAUCUUCUGUUUAUGGAAUUCUCGGGUGCCAA: 0.611
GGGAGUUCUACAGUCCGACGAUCAGGUGUAAAUAAAUUCAUAAUUCAAACAGCCAGUAUAUAUGCAUAUAUGGGUGUUACAUUGCAAAAAUCUCUAUCUUUGUUCUAUUCACAUGCUUAAAGAAGUAAGAAAUUGGAAUUCUCGGGUGCCAA: 0.883
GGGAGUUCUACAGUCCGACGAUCAAGUGGGACGGAUGAUGAGUGUCAGUAUGGACCUUUUUCCUUGGUAGAACUGAAUUCCUUCCUCCCCUGUCUCAUUUCUACCCAGUGAGUUCAUUUGUCAUAUAGGCACUUGGAAUUCUCGGGUGCCAA: 0.693

Study 3
Target: Interferon regulatory factor 3, full length, phosphomimetic (IRF3, Homo sapiens, UniProt Q14653, residues 1-427, S386D/S396D/S398D/S402D/T404D/S405D)
Method: protein-binding microarray
Molecule type: double-stranded DNA, one strand shown
Matrix: in vitro
Tested at: 2540 nM top
Notes: 60-bp whole probe
Together with: salmon DNA 0.4 mg/ml
Reference: random background probes
Direction: higher = stronger binding
Quantity: fitted relative affinity
Shared flanks, not repeated: GCCTAGCAC … GTCTTGATTCGCTTGACGCTGCTG
Construct (chain): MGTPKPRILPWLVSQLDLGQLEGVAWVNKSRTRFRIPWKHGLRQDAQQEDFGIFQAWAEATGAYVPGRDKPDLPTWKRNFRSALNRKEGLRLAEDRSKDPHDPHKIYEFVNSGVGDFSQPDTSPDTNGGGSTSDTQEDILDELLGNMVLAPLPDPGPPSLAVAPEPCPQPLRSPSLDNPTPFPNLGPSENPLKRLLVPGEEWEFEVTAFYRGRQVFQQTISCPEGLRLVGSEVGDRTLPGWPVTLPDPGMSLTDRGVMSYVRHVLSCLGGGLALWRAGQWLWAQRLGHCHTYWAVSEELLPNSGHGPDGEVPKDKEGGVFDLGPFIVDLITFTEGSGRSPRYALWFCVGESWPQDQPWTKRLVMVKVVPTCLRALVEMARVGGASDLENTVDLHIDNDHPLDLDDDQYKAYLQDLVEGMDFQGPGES
TTAGGTATCGCTTTCGGTTAGTGCTAG: 5.62 z-score
AAAACACTAATTTTCATTTTGTGCTAG: 1.77 z-score
GACGAACTGGGGTTTCGGGACGTGCTA: 1.03 z-score
TTAGATTTCAGTCTCGACTAGTGCTAG: 2.12 z-score
TTAGGTTTCGTCACTGGGTTAGTGCTA: 1.79 z-score
GACGAATTGGGGACTGGAGACGTGCTA: -0.511 z-score
TTAGGTTTCGGATCCGGTTAGTGCTAG: 8.02 z-score
TTAGGTTTCGGGTTTCGGGTAGTGCTA: 5.89 z-score
GACGAACTGGGGTTTCGAGACGTGCTA: 0.324 z-score
GACGATTACGGGACTGGAGACGTGCTA: -0.208 z-score
TTAGGTTTCGGGTACCGGTTAGTGCTA: 3.8 z-score
TGAGGTTTTCTAATGTTTTTGTGCTAG: 0.727 z-score
GACGGTCTGGACTATCGGGACGTGCTA: -0.0932 z-score
TCACCTTTATGTCCTGTACTGTGCTAG: 1.51 z-score
GACGGTTTCGGATATCGGGACGTGCTA: 5.94 z-score
TCCCATTAAATTTTAATAACGTGCTAG: 0.954 z-score
TTAGGTTCCTTTTTCCTTTAGTGCTAG: 9.32 z-score
GACGGACTGGATTTTCGGGACGTGCTA: -0.157 z-score
GACGATCTCCGTTTCGAGACGTGCTAG: 2.64 z-score
ATTTTAATCACATATACACTGGTGCTA: 1.53 z-score
TTAGATATCAGTCTGGATTAGTGCTAG: 0.208 z-score
GACGATTTCGGCACTGGAGACGTGCTA: 1.04 z-score
GGCGATTTCGGGTTTCGAGACGTGCTA: 2.75 z-score
GACGAACTGGGGACTGGAGAAGTGCTA: -0.621 z-score
GACGGTTTCGGGTATCAGGACGTGCTA: 4.75 z-score

Study 4
Target: ABI1, truncated, D143A, DHFR fusion (Arabidopsis thaliana, UniProt P49597)
Method: DHFR PCA, dose-response
Matrix: yeast
Notes: Hill fit, not affinity, not high confidence
Together with: (+)-ABA, dose series
Direction: lower = more sensitive
Quantity: ABA EC50
Starting sequence: PYL1, truncated, DHFR fusion (Arabidopsis thaliana, UniProt Q8VZS8); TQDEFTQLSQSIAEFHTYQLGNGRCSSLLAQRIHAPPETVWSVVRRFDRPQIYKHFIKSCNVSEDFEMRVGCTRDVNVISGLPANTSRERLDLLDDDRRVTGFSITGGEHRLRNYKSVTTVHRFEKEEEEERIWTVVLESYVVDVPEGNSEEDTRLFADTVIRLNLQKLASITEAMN
V40G: 4.27 µM
R74H: 8.63 µM
S87W: 0.721 µM
T101M: 13 µM
W41D: 3.28 µM
R74F: 4.64 µM
Y141N: 13.3 µM
S87E: 328 µM
V161K: 3.35 µM
V121R: 0.143 µM
H110A: 96.6 µM
F157P: 4.56 µM
F157Q: 1380 µM
P50S: 294 µM

Some of these lines once more (study 4):
R74H: 8.63 µM
S87W: 0.721 µM
T101M: 13 µM
W41D: 3.28 µM
R74F: 4.64 µM
Y141N: 13.3 µM
S87E: 328 µM
